Experimental data pooled from the literature.
Protocols differ between the studies behind these lines. ± marks the error that the study gave.

| SMILES | cell line | test | conditions | IC50 |
| --- | --- | --- | --- | --- |
| COc1cc2c3c(n(CCCNCCO)c(=O)c2cc1OC)-c1nc2c(cc1C3=O)OCO2 | CHLA-99 Ewing sarcoma cells | cytotoxicity, MTS | 72 h | 0.031 ± 0.003 µM |
| C=CCCCCCCCCCCCC(O)CC(O)CO (stereo not shown) | Vero | cytotoxicity |  | > 47.6 µg/mL |
| Cc1c2ccnc(C(=O)NCCN(C)C)c2cc2c3cc(O)ccc3n(C)c12 | HEK-293T transfected (G4C2)66-GFP | RAN translation, measured: GFP |  | 0.3 µM |
| O=C(O)COCC(=O)O | iPSC-derived hepatocytes B1 | cell viability | 48 h, differentiation day 23 | 9650 µM |
| C[C@@H]1CC[C@@H]([C@](C)(O)CNCc2ccccc2F)[C@H](OCc2ccccc2)C1 | HeLa | cell growth, inhibitor, MTT | 72 h | 6.51 µM |
| C#CCCCCCCCCC=CCC(O)CC(O)CO (stereo not shown) | Vero | cytotoxicity |  | > 47.6 µg/mL |
| COc1cc2c3c(n(CCCN4CCOCC4)c(=O)c2cc1OC)-c1nc2c(cc1C3=O)OCO2 | CHLA-99 Ewing sarcoma cells | cytotoxicity, MTS | 72 h | 0.526 ± 0.028 µM |
| Cc1cnc(-c2ccc(-c3ccc(NC(=O)Nc4c(F)cc(F)cc4F)cc3F)c3c2C(=O)NC3)[nH]1 | primary AML mononuclear cells, FLT3-ITD negative | cell viability, MTS | ex vivo | 0.535 µM |
| COc1ccc(F)cc1C(=O)NCc1ccc(-c2nn([C@@H](C)C(F)(F)F)c(N)c2C(N)=O)cc1 | Rec1 | measured: G-CSF | 24 h | > 0.1 µM |
| Cn1cc(-c2ccc(-c3cncc(Cl)c3N3CCC4(CCNC4=O)CC3)cc2)cn1 | COLO 205 | TCF/LEF reporter gene, inhibitor |  | 0.038 µM |
| COc1ccc(COC[C@@](O)(CNCc2ccccc2)[C@@H]2CC[C@@H](C)C[C@H]2OCc2ccc(OC)cc2)cc1 | HeLa | cell growth, inhibitor, MTT | 72 h | 3.67 µM |
| COC(=O)CN=c1scc(-c2ccccc2)n1-c1ccccc1OC | Panc 04.03 | cell viability, MTT | 72 h | 12.6 µM |
| CCc1cc2ncc(CN3CCN(c4ccc(C(=O)NC)nc4)CC3)cc2[nH]c1=O | SK-OV-3 PALB2 knockout | colony formation |  | 0.00042 µM |
| Cc1c(C(=O)O)ccc2c3n(nc12)[C@@H]1[C@H](C3)N(CC2CC2)[C@@]2(C(=O)Nc3cc(Cl)ccc32)[C@H]1c1cccc(Cl)c1F | MDM2-amplified well-differentiated liposarcoma cells | alamarBlue | 120 h | 0.005 µM |
| COc1nc(OCc2cccc(-c3ccccc3)c2C)ccc1CNCCNC(C)=O | LO2 | cell viability, MTT |  | 2.5 µM |
| CC1(COc2ccc3c(c2)ncn3-c2ccc3cccc(N4CCC(N)CC4)c3n2)COC1 | primary AML mononuclear cells, FLT3-ITD negative | cell viability, MTS | ex vivo | 7.51 µM |

| SMILES | cell line | test | conditions | IC50 |
| --- | --- | --- | --- | --- |
| C=C1C[C@@]23CC[C@H]4[C@@](C)(CCC[C@@]4(C)C(=O)O)[C@@H]2CC[C@@H]1C3 | S102 | cytotoxicity, MTT | 75 h | 99.3 µM |
| C[C@H](Nc1ccc2c(c1)OCCn1cc(N3C(=O)OC[C@H]3C(F)F)nc1-2)C(N)=O | MDA-MB-361 | growth rate inhibition, CellTiter-Glo | 120 h | 0.0029 µM |
| CCCCN1C[C@H](O)[C@@H](O)[C@@H](O)[C@H]1CO | sample D patient fibroblasts | GlcCer level lowering, LC-MS/MS, measured: GlcCer d18:1/16:0 | 216 h | 20.5 µM |
| CN1CCN(c2ccc3nc(-c4c(N)c5c(F)cccc5[nH]c4=O)[nH]c3c2)CC1 | primary AML mononuclear cells, FLT3-ITD negative | cell viability, MTS | ex vivo | 2.51 µM |
| COc1cc(N2CCC(N3CCN(C)CC3)CC2)ccc1Nc1ncc(Cl)c(Nc2ccccc2S(=O)(=O)C(C)C)n1 | Rh2 (embryonal rhabdomyosarcoma) | cell growth | 3 days | 0.18 ± 0.04 µM |
| C[C@H](CCC(=O)O)[C@H]1CC[C@H]2[C@@H]3CC[C@@H]4C[C@H](O)CC[C@]4(C)[C@H]3CC[C@]12C | RWPE-1 | cell viability, MTT | 72 h | 61 ± 1.6 µM |
| COC(=O)CN=c1scc(-c2ccccc2)n1-c1ccc(OC)cc1 | Panc 04.03 | cell viability, MTT | 72 h | 33.4 µM |
| CC(C)=CCC/C(C)=C/COc1ccc2ccc(=O)oc2c1 | COLO 320 multidrug-resistant | cytotoxicity, MTT | 24 h, 10% fetal bovine serum | 47.3 µM |
| Cc1c(C)c2c(c(C)c1O)CCC(C)(COc1ccc(CC3SC(=O)NC3=O)cc1)O2 (stereo not shown) | iPSC-derived hepatocytes B1 | cell viability | 24 h, differentiation day 23 | 81 µM |
| Nc1nc2cc(CC[C@H]3C[C@@H](n4ccc5c(N)ncnc54)[C@H](O)[C@@H]3O)ccc2cc1Br | PK-1 MTAP deleted | cell viability | 240 h | 0.0007 µM |
| C[C@@H](Oc1cc(-c2cnn(C3CCNCC3)c2)cnc1N)c1c(Cl)ccc(F)c1Cl | Rh6 (embryonal rhabdomyosarcoma) | cell growth | 3 days | 0.9 ± 0.15 µM |
| C=C1C[C@](OC)([C@H](OCOC/C=C/B2OC(CC)(CC)C(CC)(CC)O2)C(=O)NC[C@@H]2C[C@@H](OC)C(C)(C)[C@@H](C[C@@H](COC)OC)O2)O[C@H](C)[C@@H]1C | Renca | cell viability, sulforhodamine B | 72 h, 37 °C, without H2O2 | 0.0037 ± 0.0002 µM |
| CC(C)c1ccccc1[C@@H]1CCCN1C1CC2(CCN(c3ccc(C(=O)NS(=O)(=O)c4ccc(NC[C@H]5CC[C@](C)(O)CC5)c([N+](=O)[O-])c4)c(Oc4cnc5[nH]ccc5c4)c3)CC2)C1 | RL | cell viability, CellTiter-Glo | 2 days | 0.003 ± 0.00096 µM |
| COc1cc2c(Oc3ccc(NC(=O)C4(C(=O)Nc5ccc(F)cc5)CC4)cc3F)ccnc2cc1OCCCN1CCOCC1 | Rh2 (embryonal rhabdomyosarcoma) | cell growth | 3 days | 0.23 ± 0.06 µM |
| C[C@H]1Oc2cc(cnc2N)-c2c(nn(C)c2C#N)CN(C)C(=O)c2ccc(F)cc21 | Ba/F3 parental | cell viability | together with: 10 ng/mL IL-3 | > 10 µM |

Some of these lines once more:
| SMILES | cell line | test | conditions | IC50 |
| --- | --- | --- | --- | --- |
| C[C@@H](Oc1cc(-c2cnn(C3CCNCC3)c2)cnc1N)c1c(Cl)ccc(F)c1Cl | Rh6 (embryonal rhabdomyosarcoma) | cell growth | 3 days | 0.9 ± 0.15 µM |
| CC(C)c1ccccc1[C@@H]1CCCN1C1CC2(CCN(c3ccc(C(=O)NS(=O)(=O)c4ccc(NC[C@H]5CC[C@](C)(O)CC5)c([N+](=O)[O-])c4)c(Oc4cnc5[nH]ccc5c4)c3)CC2)C1 | RL | cell viability, CellTiter-Glo | 2 days | 0.003 ± 0.00096 µM |
